Measurements pooled from the literature.
Compare with care: the assays were run in different laboratories.
TMPRSS2: Transmembrane protease serine 2 (TMPRSS2, Homo sapiens, UniProt O15393)
UniProt O15393, sequence (whole entry, looked up): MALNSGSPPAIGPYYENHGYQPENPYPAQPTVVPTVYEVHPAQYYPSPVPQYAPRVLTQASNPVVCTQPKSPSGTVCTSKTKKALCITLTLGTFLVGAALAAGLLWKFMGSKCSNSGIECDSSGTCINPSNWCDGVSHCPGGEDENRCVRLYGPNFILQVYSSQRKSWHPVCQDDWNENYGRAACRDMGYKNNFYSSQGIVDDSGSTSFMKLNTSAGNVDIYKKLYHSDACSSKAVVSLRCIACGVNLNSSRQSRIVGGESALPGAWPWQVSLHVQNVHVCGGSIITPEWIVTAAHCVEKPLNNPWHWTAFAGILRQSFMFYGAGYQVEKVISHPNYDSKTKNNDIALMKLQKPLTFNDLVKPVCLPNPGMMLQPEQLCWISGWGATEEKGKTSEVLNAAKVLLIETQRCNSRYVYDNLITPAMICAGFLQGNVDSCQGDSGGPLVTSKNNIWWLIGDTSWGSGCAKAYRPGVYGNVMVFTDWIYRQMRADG
PFF0160c: Dihydroorotate dehydrogenase (quinone), mitochondrial (PFF0160c, Plasmodium falciparum, UniProt Q08210)
UniProt Q08210, sequence (whole entry, looked up): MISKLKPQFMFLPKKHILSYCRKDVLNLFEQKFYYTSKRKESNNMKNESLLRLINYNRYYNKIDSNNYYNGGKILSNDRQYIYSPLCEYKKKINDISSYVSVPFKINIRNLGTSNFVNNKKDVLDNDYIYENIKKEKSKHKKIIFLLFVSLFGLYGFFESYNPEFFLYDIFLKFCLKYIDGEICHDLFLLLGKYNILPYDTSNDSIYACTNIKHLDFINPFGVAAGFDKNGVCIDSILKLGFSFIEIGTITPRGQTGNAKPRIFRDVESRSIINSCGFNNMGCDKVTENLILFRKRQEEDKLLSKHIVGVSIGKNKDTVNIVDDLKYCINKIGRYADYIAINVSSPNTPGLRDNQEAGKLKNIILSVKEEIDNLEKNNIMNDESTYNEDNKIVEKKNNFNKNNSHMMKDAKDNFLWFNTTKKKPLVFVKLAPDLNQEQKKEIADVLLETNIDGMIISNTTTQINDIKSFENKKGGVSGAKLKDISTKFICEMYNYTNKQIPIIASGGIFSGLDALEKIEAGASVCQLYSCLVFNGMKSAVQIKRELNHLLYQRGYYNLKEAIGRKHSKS
UniProt O94768, sequence (whole entry, looked up): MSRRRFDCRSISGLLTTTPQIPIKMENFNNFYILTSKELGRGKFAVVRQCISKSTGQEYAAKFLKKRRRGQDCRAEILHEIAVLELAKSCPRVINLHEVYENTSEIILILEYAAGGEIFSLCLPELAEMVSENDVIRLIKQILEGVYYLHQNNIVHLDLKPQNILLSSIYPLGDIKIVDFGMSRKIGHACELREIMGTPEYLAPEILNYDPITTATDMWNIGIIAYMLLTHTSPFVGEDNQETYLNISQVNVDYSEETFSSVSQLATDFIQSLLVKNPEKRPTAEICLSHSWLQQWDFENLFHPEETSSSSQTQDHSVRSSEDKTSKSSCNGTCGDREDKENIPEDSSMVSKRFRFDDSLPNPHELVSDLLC
UniProt Q8TDR2, sequence (whole entry, looked up): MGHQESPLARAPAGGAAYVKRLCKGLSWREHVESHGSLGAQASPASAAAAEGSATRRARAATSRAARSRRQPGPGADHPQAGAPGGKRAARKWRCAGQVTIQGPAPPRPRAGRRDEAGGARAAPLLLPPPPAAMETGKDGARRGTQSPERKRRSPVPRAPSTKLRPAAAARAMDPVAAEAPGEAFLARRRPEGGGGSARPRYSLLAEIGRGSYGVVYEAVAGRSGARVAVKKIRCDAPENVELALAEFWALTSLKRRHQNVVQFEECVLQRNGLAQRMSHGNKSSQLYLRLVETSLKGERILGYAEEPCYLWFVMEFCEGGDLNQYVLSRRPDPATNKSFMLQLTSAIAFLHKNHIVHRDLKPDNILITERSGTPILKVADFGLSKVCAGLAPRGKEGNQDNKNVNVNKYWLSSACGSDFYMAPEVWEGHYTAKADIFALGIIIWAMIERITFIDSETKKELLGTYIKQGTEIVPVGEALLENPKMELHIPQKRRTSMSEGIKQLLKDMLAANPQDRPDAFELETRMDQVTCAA
UniProt P00374, sequence (whole entry, looked up): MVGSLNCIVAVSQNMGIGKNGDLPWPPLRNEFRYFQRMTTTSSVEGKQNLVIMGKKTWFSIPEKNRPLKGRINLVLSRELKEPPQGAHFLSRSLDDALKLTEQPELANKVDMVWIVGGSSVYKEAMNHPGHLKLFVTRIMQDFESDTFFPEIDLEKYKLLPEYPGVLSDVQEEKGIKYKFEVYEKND
UniProt Q00537, sequence (whole entry, looked up): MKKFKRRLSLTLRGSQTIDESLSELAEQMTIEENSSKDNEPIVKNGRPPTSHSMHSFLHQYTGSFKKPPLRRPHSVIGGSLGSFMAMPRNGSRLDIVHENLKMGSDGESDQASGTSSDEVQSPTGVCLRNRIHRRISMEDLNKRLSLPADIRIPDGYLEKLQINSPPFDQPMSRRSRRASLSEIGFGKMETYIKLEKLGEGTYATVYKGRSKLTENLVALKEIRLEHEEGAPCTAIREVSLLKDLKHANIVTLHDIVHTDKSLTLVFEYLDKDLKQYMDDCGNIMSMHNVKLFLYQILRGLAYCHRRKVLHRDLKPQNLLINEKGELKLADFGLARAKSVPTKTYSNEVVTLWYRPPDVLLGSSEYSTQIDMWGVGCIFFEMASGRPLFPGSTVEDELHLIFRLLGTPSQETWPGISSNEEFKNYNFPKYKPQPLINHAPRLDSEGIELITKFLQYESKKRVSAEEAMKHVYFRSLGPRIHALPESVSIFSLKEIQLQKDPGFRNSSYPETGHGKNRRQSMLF
UniProt P21554, sequence (whole entry, looked up): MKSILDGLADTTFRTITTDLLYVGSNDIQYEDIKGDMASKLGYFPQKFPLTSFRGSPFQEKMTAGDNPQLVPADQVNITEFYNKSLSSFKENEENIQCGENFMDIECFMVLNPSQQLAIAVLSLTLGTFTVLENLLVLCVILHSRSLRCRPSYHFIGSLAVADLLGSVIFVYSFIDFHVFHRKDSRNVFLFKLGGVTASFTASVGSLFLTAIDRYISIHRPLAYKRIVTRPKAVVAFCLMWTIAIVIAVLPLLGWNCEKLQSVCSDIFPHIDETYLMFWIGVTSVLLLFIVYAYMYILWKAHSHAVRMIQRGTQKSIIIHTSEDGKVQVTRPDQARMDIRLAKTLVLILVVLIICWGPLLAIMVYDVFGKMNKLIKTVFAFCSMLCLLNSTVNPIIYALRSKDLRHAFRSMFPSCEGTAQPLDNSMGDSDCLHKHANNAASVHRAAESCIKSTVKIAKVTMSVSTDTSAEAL
UniProt O43318, sequence (whole entry, looked up): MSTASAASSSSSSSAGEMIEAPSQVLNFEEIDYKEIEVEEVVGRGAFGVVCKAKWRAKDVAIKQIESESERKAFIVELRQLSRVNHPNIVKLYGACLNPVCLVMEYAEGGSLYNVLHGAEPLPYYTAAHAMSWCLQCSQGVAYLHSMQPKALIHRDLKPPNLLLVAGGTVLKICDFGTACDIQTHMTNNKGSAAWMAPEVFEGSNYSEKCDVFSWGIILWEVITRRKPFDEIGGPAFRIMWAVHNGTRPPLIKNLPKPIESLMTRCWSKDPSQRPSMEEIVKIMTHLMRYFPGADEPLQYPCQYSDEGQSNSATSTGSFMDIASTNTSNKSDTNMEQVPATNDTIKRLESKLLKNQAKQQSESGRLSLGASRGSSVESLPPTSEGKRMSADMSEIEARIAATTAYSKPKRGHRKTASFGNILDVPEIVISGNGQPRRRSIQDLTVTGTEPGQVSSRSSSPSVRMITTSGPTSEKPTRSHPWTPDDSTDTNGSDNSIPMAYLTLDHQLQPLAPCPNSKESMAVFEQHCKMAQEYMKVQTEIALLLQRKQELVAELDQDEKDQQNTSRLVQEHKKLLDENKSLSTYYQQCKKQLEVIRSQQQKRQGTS
UniProt P22303, sequence (whole entry, looked up): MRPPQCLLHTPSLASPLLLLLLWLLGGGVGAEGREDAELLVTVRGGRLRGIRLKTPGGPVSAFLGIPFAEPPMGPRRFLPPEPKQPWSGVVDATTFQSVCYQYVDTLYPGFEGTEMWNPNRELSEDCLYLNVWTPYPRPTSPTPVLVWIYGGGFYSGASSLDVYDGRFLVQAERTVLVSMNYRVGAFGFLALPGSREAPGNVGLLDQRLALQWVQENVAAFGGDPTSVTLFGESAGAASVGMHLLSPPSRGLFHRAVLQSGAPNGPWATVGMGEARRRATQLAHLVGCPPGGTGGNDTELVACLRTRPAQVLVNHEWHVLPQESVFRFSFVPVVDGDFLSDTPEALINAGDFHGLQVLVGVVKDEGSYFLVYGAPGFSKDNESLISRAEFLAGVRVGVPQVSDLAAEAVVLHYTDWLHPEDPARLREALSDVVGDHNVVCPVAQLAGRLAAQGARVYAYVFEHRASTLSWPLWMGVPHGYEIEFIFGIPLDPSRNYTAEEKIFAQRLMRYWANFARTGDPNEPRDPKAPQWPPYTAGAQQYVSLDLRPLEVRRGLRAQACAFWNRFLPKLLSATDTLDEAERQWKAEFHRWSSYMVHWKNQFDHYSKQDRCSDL

For `CC(=O)N[C@@H](CCC(=O)O)C(=O)N[C@@H](Cc1ccccc1)C(=O)N[C@H](CCCNC(=N)N)C(=O)c1nc2ccccc2s1`, “activity vs control” read 32% (TMPRSS2; enzyme activity, inhibitor; 1 nM).
The remaining binding of `[2H]c1c([2H])c([C@]2([2H])CCCN2C(=O)C(C)(C)Oc2ccc3cn[nH]c3c2)c([2H])c([2H])c1C([2H])([2H])[2H]` is reported as 75% (Serine/threonine-protein kinase 35 (STK35, Homo sapiens, UniProt Q8TDR2); binding, competition with immobilised ligand; 1 µM).
For `CS(=O)(=O)N[C@@H](CCC(=O)O)C(=O)N[C@@H](Cc1ccccc1)C(=O)N[C@@H](CCCNC(=N)N)C(=O)c1nc2ccccc2s1`, “activity vs control” read 74% (TMPRSS2; enzyme activity, inhibitor; 1 nM).
With `Cc1ccc(N2CCc3c(-c4cc5cccnc5nc4C)cc(C)nc32)c(Cl)c1` the IC50 was 0.567 µM (PFF0160c; enzyme activity, inhibitor, absorbance).
`N=C(N)NCCCCC(=O)N[C@@H](CCC(=O)O)C(=O)N[C@@H](Cc1ccccc1)C(=O)N[C@@H](CCCNC(=N)N)C(=O)c1nc2ccccc2s1` — result for “activity vs control”: 14% (TMPRSS2; enzyme activity, inhibitor; 1 nM).
`CN1C(=O)/C(=N\Nc2ncc(-c3cc4ccccc4oc3=O)s2)c2cc(Cl)ccc21` gave an inhibition of 78% (Acetylcholinesterase (ACHE, Homo sapiens, UniProt P22303); enzyme activity, inhibitor, Ellman; 0.5 µM).
Under “activity vs control”, `CS(=O)(=O)N[C@@H](CCCNC(=N)N)C(=O)N[C@@H](CCC(N)=O)C(=O)N[C@@H](Cc1ccccc1)C(=O)N[C@H](CCCNC(=N)N)C(=O)c1nccs1` is recorded as 61% (TMPRSS2; enzyme activity, inhibitor; 1 nM).
The ΔTm of `CCN(CC)CCCC[C@H](NC(=O)[C@H](CC(C)C)NC(=O)[C@H](C)NC(=O)[C@H](Cc1ccccc1)NC(=O)c1ccc(C(C)(C)C)cc1)C(=O)N[C@@H](CO)C(=O)OC` is reported as 0.21 °C (Bromodomain testis-specific protein, BD2 (BRDT, Homo sapiens, UniProt Q58F21); thermal stability, DSF; 25 µM).
For `CCc1nonc1NC(=O)c1oc2c(C)c(C)ccc2c1C`, the IC50 was 0.214 µM (PFF0160c; enzyme activity, inhibitor, absorbance).
The inhibition of `C#Cc1n[nH]c2c(-c3cn([C@@H](C)c4ccccn4)c(=O)[nH]c3=O)cc(F)cc12` is reported as -3.2% (DNA-dependent protein kinase catalytic subunit (PRKDC, Homo sapiens, UniProt P78527); enzyme activity, inhibitor; 0.1 µM).
`Nc1ncc(-c2nc(N3CCOCC3)nc(N3CCOCC3)n2)c(C(F)F)n1` has a remaining binding of 100% (Cyclin-dependent kinase 17 (CDK17, Homo sapiens, UniProt Q00537); binding, competition with immobilised ligand; 10 µM).
`COc1ncccc1-c1cnn2ccc(N3CCN(C(=O)OC(C)C)CC3)nc12` gave a remaining binding of 30% (Serine/threonine-protein kinase 17B (STK17B, Homo sapiens, UniProt O94768); binding, competition with immobilised ligand; 1 µM).
With `NC(=O)C1=CN([C@@H]2O[C@H](COP(=O)(O)OP(=O)(O)OC[C@H]3O[C@@H](n4cnc5c(N)ncnc54)[C@H](OP(=O)(O)O)[C@@H]3O)[C@@H](O)[C@H]2O)C=CC1` the Km was 10.7 µM (Dihydrofolate reductase (DHFR, Homo sapiens, UniProt P00374); enzyme activity, substrate, absorbance).
`O=C(N=Nc1c(O)n(CC2CCCCC2)c2ccccc12)c1ccccc1` gave an Emax of 127% (Cannabinoid receptor 1 (CNR1, Homo sapiens, UniProt P21554); β-arrestin recruitment, agonist; HEK293).
`Cc1nn(C)cc1-c1nc2c(N3CCN(Cc4ccc(Cl)cc4)CC3)c(Cl)cnc2[nH]1` gave a remaining binding of 100% (Mitogen-activated protein kinase kinase kinase 7 (MAP3K7, Homo sapiens, UniProt O43318); binding, competition with immobilised ligand; 1 µM).

A few entries again:
`COc1ncccc1-c1cnn2ccc(N3CCN(C(=O)OC(C)C)CC3)nc12` gave a remaining binding of 30% (Serine/threonine-protein kinase 17B (STK17B, Homo sapiens, UniProt O94768); binding, competition with immobilised ligand; 1 µM).
With `NC(=O)C1=CN([C@@H]2O[C@H](COP(=O)(O)OP(=O)(O)OC[C@H]3O[C@@H](n4cnc5c(N)ncnc54)[C@H](OP(=O)(O)O)[C@@H]3O)[C@@H](O)[C@H]2O)C=CC1` the Km was 10.7 µM (Dihydrofolate reductase (DHFR, Homo sapiens, UniProt P00374); enzyme activity, substrate, absorbance).
